Experimental data gathered from unrelated publications.
Parts stem from different laboratories: compare values within a part only. Changes are numbered by the printed parent chain.

Set 1
Target: CCNF, cyclin fold, Cln2 fusion (human)
Technique: yeast growth competition, sequencing
Medium: yeast
Setting: strong parent motif
Baseline: not given
Reading: higher = stronger binding
Quantity: normalised enrichment score
Parent: SLBP docking peptide (human); ARYKRKLLINDFG
ARYKRKLLIRDFG [N10R]: 1.19
ARYKRKLLIHDFG [N10H]: 1.21
ARYKCKLLINDFG [R5C]: 2.23
ARYKRKLLINTFG [D11T]: 2.35
ARYKRKLLINWFG [D11W]: 2.5
PRYKRKLLINDFG [A1P]: 1.87
ARYKRKLKINDFG [L8K]: 1.15
ARYKRKLGINDFG [L8G]: 1.46
ARYKRKLAINDFG [L8A]: 1.55
ARYKRALLINDFG [K6A]: 1.47
ARYKHKLLINDFG [R5H]: 1.24
ARYKVKLLINDFG [R5V]: 1.89
ARYKRKLLINEFG [D11E]: 1.92
ARYIRKLLINDFG [K4I]: 1.55
ARYKRKLLINDFS [G13S]: 1.29
ARYKRKLLINDFV [G13V]: 3.29
ARYKAKALINDFG [R5A L7A]: 1.17
ARYKRKLFINDFG [L8F]: 2.46
ARYFRKLLINDFG [K4F]: 2.35
ARYKRKLLINRFG [D11R]: 2.16
ARYKRKLNINDFG [L8N]: 1.45
ARYKRKLLINDGG [F12G]: 1.52
ARYKTKLLINDFG [R5T]: 0.413
ARYMRKLLINDFG [K4M]: 2.27
ARYKRPLLINDFG [K6P]: -0.0258

Set 2
Target: RING finger protein unkempt homolog, zinc fingers 1-6, GST-SBP tag (UNK, Homo sapiens, UniProt Q9C0B0, residues 30-357)
UniProt Q9C0B0, sequence (30-357, looked up): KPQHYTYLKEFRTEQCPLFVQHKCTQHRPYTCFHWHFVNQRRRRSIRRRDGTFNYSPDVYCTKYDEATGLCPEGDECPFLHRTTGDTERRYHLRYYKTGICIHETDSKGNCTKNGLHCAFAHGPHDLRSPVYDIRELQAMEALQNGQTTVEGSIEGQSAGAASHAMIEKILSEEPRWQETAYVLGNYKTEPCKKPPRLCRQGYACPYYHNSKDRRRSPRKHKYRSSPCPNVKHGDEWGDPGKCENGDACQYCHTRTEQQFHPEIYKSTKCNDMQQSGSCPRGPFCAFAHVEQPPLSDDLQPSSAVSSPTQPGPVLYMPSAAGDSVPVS
Technique: RNA Bind-n-Seq
Form: RNA
Medium: in vitro
Concentration: not given
Setting: RNA with constant flanks, human-mouse chimeric sites, ends assumed
Baseline: input RNA pool
Reading: higher = stronger binding
Quantity: bound/input enrichment
Shared flanks, not repeated: GGGAGUUCUACAGUCCGACGAUC … CAACAGAGGAUUGAGCAUCA
UCUUUAAAAAAAAAAUUACAGGAAAAUACAGUGCUUUCCCUCCCAUAGAUCCACGUUCACACUAGAAGAGCAAAGGCUUUGCACGGAGCUCAAACAUCUGAUGAAGAAAGAUUUCUGAGA: 1.66 ratio
UCUUAACUUAUUCAUUUAACUUAUUUUUAUAGCUAGAUAAAUAUUGUUAGUCUUAGACAAUAGCUCACAUUUUUUGAGAAGCAUGCCCUCCCUAUCCAUUUGUCUUAUAACAUGACCCAG: 7.83 ratio
AAUGUUCUUAAUAUUUUUGAAUAAAUGAAGCUAAAAUGUCUGCUUUUGGUACAACACGCAUUAGCGAAAGGUUAAGUUUUGUUUUCCACUGAAGUACUAUUUAACAUCUCAGAAAAAAAC: 0.423 ratio
CUCUUUGAAUCAUUCAAGAGUUUUGAAGGUCUCUUUUAUUUUCUGGGAUCCAUUGUUAACUUUAGCCAGGACCCAGAUGUGCACUUUAAAUAUAUUCAGGCGGCUUGCAAGACUGGGCAA: 0.48 ratio
UUGAAAACUGAUUCAAGUAAGUUUGAGUAUCACAAUGUUAGCUUUCUAAUUCCAUAAAAGUACUUGGUACAGUUUCUUUAUAAUCUGCAAUCCAUCAAGCGCCAUUUGUAAAGAGCAACU: 0.491 ratio
GAUCAUGAACCACCAUCCAGAAAUGAAAUGAGAUUACCCAGACGAGCCAAAACAGCUAGCACUAGAAAAAGUAAACUUAACCUUGCAGAGUUCCUUAAUGAAGAUACAAGUUAAGAGAGC: 2.9 ratio
CGGAGCCCUCCUCUCCCCCAGGCCCGAGAUGUGACCCACCAGUGCCUUUUGUCUUCCUGUCAGCUCUGUCAAUCACGCCUGUCCUCUCACGCCCACACCAAGUGCCCAAAGUGGGGAGGG: 0.7 ratio
GGAUUCCGCUUCCGGUUCCGUUGGGCUCGGUUCUCUCCUGAGCUACGUGUCUCUACGCUCUCAAUCCGCCAUCCAACAAACAUGGAUCAGGUAAUGCUGCAGUUUGUGCCCAGCCGGCAG: 0.112 ratio
UGGCGCCUGCGCUCCCCACUCGUGUUUUUAAGUGUAUAAGAUGUAUAUACAUGUAUUUACAAUUGAGCUUUUGUUACAUAAUGCUGAAAUGCUACUGGAGAUUAUGAAAAAAUGUUAAAU: 0.211 ratio
GCUCCUCCCCGCUCUGCAGCCUGGGGACACUGGGCUGCAUUUUUUUUCCAGCUUUCUUUUAAAACUCUCAGUGUAACUGUAUCCCGUUUUUUUCUUUUUUUUUUAAAUAGUGUAUUUUUU: 31.9 ratio
AAAUCGUGUGUGUCAAAUAUUGAAAGUACUUUAUCUGCACUCCAGUAUGUAAGCAGUAUAGUAGUUUCUUUAGAGAAUAGGUCAGCCAUUGUAAAGUACAAUGCAAGCUUAGUCACUCCA: 2.77 ratio

Set 3
Target: RNA binding protein fox-1 homolog 2, RRM domain, GST-SBP tag (RBFOX2, Homo sapiens, UniProt O43251-10, residues 100-194)
Technique: RNA Bind-n-Seq
Form: RNA
Medium: in vitro
Concentration: 365 nM
Setting: natural RNA segment, single round, ends assumed
Baseline: no-protein control
Reading: higher = stronger binding
Quantity: RBNS enrichment (R)
Shared flanks, not repeated: GGGAGUUCUACAGUCCGACGAUC … UGGAAUUCUCGGGUGCCAA
Residues (chain): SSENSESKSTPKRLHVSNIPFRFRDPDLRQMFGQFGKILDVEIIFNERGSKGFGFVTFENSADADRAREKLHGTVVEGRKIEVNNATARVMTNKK
CACUAGUGGGACAGCGGUUUUCAAUGGUGCUGAUCAGUCGACUCGUCAACUCCUGUCAUUUUUAGAAAAUAAAACUGGAAAUUGAAUGUGGGUGGCAUGAUUGUACCCUC: 13.3
GCCACCAUGCCCAGCUCAGAGGGUUGUUCUCCUAGACUGACCCUGAUCAGUCUAAGAUGGGUGGGGACGUCCUGCCACCUGGGGCAGUCACCUGCCCAGAUCCCAGAAGG: 0.317
UUUAGAUAUACACACAUGCGUAACAGCUGACAGUUUUUCACAAGUACACCCACCUGUAAAUACUGUAUCCUCAGUUUAGAAAAUUAGUGCAAUGUAUGAAAAUCAAGUGU: 0.287
GUAACAGGACUUGGUAGUUUCCACCUAGGAAAACCGAGCUCUCUGGUGUGGUUCGCAGUACUGAGGGCAGGGCUGGUGCCUUGCUGCUCUGUUCCAAACAGGCCAGUGGA: 0.319
UAACCCUUCACAAAAGAAAAGAUCACCAAAAGGGGUUGUAUAUUUGAAAACAUUAUACUUGUAUCCAUUUUCCUCUGUUCAACAAAGAGAAAGUUCAAGUUAGCUUCAGU: 0.32
CACAGCCUCCAUGUGCGCGCGCGUGUGGAGCUGUGUGCACCGCAUGUGUGCUUUCCACAGGGGCGUCUCUGCGUCCACGCCUGCACAUCCCGGCGCACGUGUGGGCACCA: 2.54
UUACUGCUGCUUUAGAGCAUGAGUGCCUAGGUGCCUGGAUGCAUGUGUGCCCGGAUGCAUGGAUGCCUGGGUUCCUAGAUGCAUAGAUGCCUGGGUGCCUGGAUGCAUGG: 28.4
GUAACAGCAAAGUAUAUAUUUGAUGUUUUCUGUCUUUCAUGAUAUUGUGCUAACAAGUUGUGCUAAUAUUUAACUCAGCCAGAGUUUCACUCAUUUGCUAAGCAUUGGGA: 0.334
GAGCACACUGCCUCAUUUUCCUCACCAACAAGACAAAGCCUUUCCAAUGAUUUUUUUUUAAACUUUCAAAGUGGUUGUUCAAAGUGUAGCAACUUGUAUGUUGAAAUGAU: 0.58
UGGCAAAGAUACCAAGUCAUACCUACUCAACAGAUGGCAUGGGACAUAUGAAGAAAUGGAGACAUUAACUUCGUUCUAAAGCCUGAUUGUAGAUUGCUCCUUAAAACUGA: 1.12
AUUUAUUUCAGAGCGGAGAAACUUAAGCUAAAGUCUGUUAUACAGAAUUGAAAGCCUUCGUAUCUUGAACCUCCCAACAUUUUUCUUAUGGCUGUUGAAAAGUAUAGAGC: 0.707
UUUUCAUGUAUUCAUUUGCAGUCUUUGUAUUUAAAAAACAUUUACUGUUAUGUUUGUAUAAUAGAACAGUAAUCAUUUAUUAUAAUCUAGGCAAGUUGUAAAUAAAUUCA: 0.544

Set 4
Target: ABI1, truncated, D143A, DHFR fusion (Arabidopsis thaliana)
Technique: DHFR PCA, deep sequencing
Medium: yeast
Setting: methotrexate growth selection, single substitutions
Together with: (+)-ABA 1.4 µM
Baseline: wild-type fitted maximum
Reading: higher = stronger binding
Quantity: relative binding score
Parent: PYL1, truncated, DHFR fusion (Arabidopsis thaliana); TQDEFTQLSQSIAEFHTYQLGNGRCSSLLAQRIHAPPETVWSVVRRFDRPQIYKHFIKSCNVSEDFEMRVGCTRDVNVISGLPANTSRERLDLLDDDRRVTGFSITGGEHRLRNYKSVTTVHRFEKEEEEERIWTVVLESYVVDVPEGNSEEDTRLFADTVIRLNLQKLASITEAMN
V62S: 8.3%
L138E: -7.44%
D97S: 56.4%
E38P: 13.5%
I133W: 38.6%
S9I: 16.6%
R98G: 10.5%
I172D: -12.3%
Q51K: 14%
A158Q: 0.925%
L93R: 38.3%
S11G: 31.7%
E14K: 22.1%

Set 5
Target: CEP164, C-terminal peptide (human)
Technique: DHFR complementation, deep sequencing
Medium: yeast
Setting: single substitutions, model-inferred values
Baseline: wild type
Reading: higher = weaker binding
Quantity: binding free energy change
Parent: PDZK1, PDZ domain 2 (human); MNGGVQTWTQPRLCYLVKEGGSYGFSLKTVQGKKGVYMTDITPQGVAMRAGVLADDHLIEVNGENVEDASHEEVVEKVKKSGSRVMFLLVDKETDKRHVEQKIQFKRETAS; partner HNRVKVYRF
E72T: 0.53 kcal/mol
Q31C: 0.0129 kcal/mol
G82E: 0.597 kcal/mol
K92C: -0.0218 kcal/mol
V61C: 0.484 kcal/mol
S83Y: 0.135 kcal/mol
V75S: 2.2 kcal/mol
T94H: -0.0683 kcal/mol
V30T: -0.333 kcal/mol
I103Y: -0.146 kcal/mol
L89T: 1.02 kcal/mol
V46H: 0.896 kcal/mol

Set 6
Target: CREB3, bZIP domain (human)
Technique: DHFR protein complementation
Medium: yeast
Setting: single substitutions, most at no-binding floor
Baseline: wild-type JUN-FOS pair
Reading: higher = stronger binding
Quantity: binding fitness
Parent: JUN, bZIP domain (human); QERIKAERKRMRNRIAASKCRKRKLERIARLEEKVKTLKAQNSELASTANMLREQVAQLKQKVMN; partner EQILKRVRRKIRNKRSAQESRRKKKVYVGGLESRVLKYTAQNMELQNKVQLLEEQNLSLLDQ
T48C: -1.37 natural log
S47T: -1.26 natural log
R30Q: -1.46 natural log
E54R: -1.31 natural log
R53I: -1.33 natural log
A49H: -1.55 natural log
L52R: -1.46 natural log
I28Q: -1.25 natural log
E54H: -1.46 natural log
L38F: -1.41 natural log
L59P: -1.53 natural log
T48H: -1.46 natural log
A29E: -1.45 natural log
M51A: -1.36 natural log

Set 7
Target: Sal-like protein 4, full length isoform A (SALL4, Homo sapiens, UniProt Q9UJQ4, residues 1-1053)
UniProt Q9UJQ4, sequence (whole entry, looked up): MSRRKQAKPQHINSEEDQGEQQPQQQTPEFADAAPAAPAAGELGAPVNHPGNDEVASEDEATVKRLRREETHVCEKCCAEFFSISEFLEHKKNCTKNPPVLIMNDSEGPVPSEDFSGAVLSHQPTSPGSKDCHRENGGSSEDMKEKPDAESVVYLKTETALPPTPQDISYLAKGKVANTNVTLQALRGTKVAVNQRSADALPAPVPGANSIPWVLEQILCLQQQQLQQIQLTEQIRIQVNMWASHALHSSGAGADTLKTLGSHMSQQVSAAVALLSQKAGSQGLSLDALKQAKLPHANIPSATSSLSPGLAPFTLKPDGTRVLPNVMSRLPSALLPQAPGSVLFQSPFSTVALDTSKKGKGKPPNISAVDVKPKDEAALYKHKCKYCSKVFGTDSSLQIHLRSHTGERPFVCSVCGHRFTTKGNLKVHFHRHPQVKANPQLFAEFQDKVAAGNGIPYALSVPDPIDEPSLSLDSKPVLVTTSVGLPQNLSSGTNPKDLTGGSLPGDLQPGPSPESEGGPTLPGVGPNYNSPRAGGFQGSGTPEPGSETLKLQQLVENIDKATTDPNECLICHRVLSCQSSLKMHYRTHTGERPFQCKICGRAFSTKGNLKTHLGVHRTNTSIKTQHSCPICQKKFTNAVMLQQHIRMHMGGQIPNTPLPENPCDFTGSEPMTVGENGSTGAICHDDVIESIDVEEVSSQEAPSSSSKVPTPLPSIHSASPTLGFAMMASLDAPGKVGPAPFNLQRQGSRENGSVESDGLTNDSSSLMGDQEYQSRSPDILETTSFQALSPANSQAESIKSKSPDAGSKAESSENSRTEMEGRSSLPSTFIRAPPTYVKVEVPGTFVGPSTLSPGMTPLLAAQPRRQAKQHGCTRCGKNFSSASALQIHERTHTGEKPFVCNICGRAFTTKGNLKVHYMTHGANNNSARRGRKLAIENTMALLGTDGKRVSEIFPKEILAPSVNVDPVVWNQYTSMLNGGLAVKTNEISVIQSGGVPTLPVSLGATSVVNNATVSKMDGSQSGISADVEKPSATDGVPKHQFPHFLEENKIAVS
Technique: universal PBM
Form: double-stranded DNA, one strand shown
Medium: in vitro
Concentration: 600 nM
Setting: 8-mer, flanks averaged, mean of replicates
Reading: higher = stronger binding
Quantity: E-score
ACAAACCA: -0.0599
CCCACACA: -0.171
GTAAATAC: 0.167
AAGACATA: 0.27
CTCCTAAC: 0.005
AATCCAGC: -0.228
ATCACTGA: 0.121
AACCTCGG: -0.213
CTCAAGAC: -0.09
AACGGGAC: -0.294
CTGTACGA: 0.0937
GCGTCTCC: -0.261
GGAGAAAA: 0.0695
AAATACCG: 0.0905
ACGCATAG: -0.0155
AAGCACTG: 0.127
ACGCGTCT: -0.163
GCGTTTCA: -0.00913
ATAGATTA: 0.349
GAACCATC: -0.11
CTGACCAC: -0.187
CATGGTGG: -0.243
AATAAGAC: 0.271
ATTCCTGG: -0.00736

Other studies, line by line
PhoQ, residues 284 288 289 292 302 303 ASASEQ
fold induction (PhoP, residues 12 14 15 18 19 SFCSL (Escherichia coli, UniProt P23836); Sort-seq, refers to: YFP reporter; E. coli; PhoQ-PhoP variant library, together with: 10 µM Mg2+; baseline: high Mg2+ state, higher = stronger signaling): 4.97

For quick reference, copied from above (set 1):
ARYKRPLLINDFG [K6P]: -0.0258
ARYKRKLNINDFG [L8N]: 1.45
ARYKVKLLINDFG [R5V]: 1.89
ARYKRKLLINRFG [D11R]: 2.16
ARYFRKLLINDFG [K4F]: 2.35
ARYKRKLLINDFS [G13S]: 1.29
PRYKRKLLINDFG [A1P]: 1.87
ARYKRKLLIRDFG [N10R]: 1.19
ARYKCKLLINDFG [R5C]: 2.23
ARYKRKLLINDGG [F12G]: 1.52
ARYIRKLLINDFG [K4I]: 1.55
ARYKTKLLINDFG [R5T]: 0.413
ARYKRKLLINDFV [G13V]: 3.29
ARYKHKLLINDFG [R5H]: 1.24
ARYMRKLLINDFG [K4M]: 2.27
ARYKRKLLINEFG [D11E]: 1.92
ARYKAKALINDFG [R5A L7A]: 1.17
ARYKRKLAINDFG [L8A]: 1.55
ARYKRKLLINTFG [D11T]: 2.35
